Results from different studies.
A part holds a random share of what one study measured. “And” joins repeats or separate records; there may be more than shown.
UniProt Q5VT25, sequence (whole entry, looked up): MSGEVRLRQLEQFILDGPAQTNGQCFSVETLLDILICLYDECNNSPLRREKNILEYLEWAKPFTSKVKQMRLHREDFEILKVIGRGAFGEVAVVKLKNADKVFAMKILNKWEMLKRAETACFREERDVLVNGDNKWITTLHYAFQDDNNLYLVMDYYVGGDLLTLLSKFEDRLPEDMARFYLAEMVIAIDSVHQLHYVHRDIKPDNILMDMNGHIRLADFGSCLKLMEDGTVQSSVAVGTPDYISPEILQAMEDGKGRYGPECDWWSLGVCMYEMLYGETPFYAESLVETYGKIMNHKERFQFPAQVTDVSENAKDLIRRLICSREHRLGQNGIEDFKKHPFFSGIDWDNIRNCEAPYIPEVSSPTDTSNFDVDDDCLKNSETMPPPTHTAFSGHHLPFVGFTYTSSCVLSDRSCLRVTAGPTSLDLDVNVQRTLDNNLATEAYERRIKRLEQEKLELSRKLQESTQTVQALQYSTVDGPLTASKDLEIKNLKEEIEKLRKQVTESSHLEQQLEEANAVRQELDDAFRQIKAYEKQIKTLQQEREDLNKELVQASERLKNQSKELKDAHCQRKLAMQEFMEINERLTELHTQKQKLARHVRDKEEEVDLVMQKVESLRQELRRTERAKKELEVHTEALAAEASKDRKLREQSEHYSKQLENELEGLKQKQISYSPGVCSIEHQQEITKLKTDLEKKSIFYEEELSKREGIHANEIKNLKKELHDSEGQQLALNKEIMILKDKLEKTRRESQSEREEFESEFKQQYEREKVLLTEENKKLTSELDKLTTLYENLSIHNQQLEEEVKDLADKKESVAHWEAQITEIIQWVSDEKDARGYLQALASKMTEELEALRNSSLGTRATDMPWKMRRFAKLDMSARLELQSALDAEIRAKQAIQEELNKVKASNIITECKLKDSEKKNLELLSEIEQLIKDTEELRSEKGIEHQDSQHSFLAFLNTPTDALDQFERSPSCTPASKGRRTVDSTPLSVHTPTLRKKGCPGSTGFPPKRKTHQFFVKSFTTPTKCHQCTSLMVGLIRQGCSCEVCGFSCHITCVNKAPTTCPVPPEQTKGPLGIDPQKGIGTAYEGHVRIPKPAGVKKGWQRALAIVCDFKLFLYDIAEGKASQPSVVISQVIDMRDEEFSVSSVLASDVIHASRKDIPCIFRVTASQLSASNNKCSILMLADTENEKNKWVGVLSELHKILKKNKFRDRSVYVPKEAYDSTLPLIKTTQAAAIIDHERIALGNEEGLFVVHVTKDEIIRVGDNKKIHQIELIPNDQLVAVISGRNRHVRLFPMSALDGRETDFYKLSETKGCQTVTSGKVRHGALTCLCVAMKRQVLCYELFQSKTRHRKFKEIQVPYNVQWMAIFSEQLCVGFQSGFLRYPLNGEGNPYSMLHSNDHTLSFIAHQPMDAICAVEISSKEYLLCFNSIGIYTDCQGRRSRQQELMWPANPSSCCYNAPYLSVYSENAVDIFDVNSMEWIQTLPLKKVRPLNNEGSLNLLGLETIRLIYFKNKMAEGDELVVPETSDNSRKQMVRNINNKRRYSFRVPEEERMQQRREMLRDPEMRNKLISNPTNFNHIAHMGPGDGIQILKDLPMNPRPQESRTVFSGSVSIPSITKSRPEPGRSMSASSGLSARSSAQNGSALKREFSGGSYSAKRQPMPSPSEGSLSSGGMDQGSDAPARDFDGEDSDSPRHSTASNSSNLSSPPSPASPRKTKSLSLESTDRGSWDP
UniProt P50613, sequence (whole entry, looked up): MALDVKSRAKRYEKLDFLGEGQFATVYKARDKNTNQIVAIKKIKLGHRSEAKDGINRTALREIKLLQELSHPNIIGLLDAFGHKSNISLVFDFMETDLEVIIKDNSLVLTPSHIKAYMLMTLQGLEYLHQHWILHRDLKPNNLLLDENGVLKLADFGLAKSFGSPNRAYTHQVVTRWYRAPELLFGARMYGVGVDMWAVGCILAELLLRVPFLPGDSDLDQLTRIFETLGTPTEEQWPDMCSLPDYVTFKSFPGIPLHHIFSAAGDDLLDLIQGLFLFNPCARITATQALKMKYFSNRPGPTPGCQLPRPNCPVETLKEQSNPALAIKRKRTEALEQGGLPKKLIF

Study 1
SMILES: CN([C@@H]1CCc2c(CC(=O)O)c3ccccc3n2C1)S(=O)(=O)c1ccc(F)cc1
Observed: cell-free assay
Method: competition with immobilised ligand
Tested at: 1 µM
| target | remaining binding |
| --- | --- |
| Tyrosine-protein kinase receptor TYRO3 (TYRO3, Homo sapiens, UniProt Q06418) | 72% |
| Protein-tyrosine kinase 6 (PTK6, Homo sapiens, UniProt Q13882) | 100% |
| Serine/threonine-protein kinase LATS1 (LATS1, Homo sapiens, UniProt O95835) | 69% |
| Tyrosine-protein kinase Mer (MERTK, Homo sapiens, UniProt Q12866) | 100% |
| Focal adhesion kinase 1 (PTK2, Homo sapiens, UniProt Q05397) | 100% |
| Mitogen-activated protein kinase 4 (MAPK4, Homo sapiens, UniProt P31152) | 100% |
| Casein kinase I isoform gamma-1 (CSNK1G1, Homo sapiens, UniProt Q9HCP0) | 100% |
| Serine/threonine-protein kinase 35 (STK35, Homo sapiens, UniProt Q8TDR2) | 100% |
| Vascular endothelial growth factor receptor 3 (FLT4, Homo sapiens, UniProt P35916) | 95% |
| Serine/threonine-protein kinase 24 (STK24, Homo sapiens, UniProt Q9Y6E0) | 100% |
| Ephrin type-A receptor 2 (EPHA2, Homo sapiens, UniProt P29317) | 100% |
| Mitogen-activated protein kinase kinase kinase 7 (MAP3K7, Homo sapiens, UniProt O43318) | 100% |
| Serine/threonine-protein kinase MRCK alpha (CDC42BPA, Homo sapiens, UniProt Q5VT25) | 100% |
| Proto-oncogene tyrosine-protein kinase receptor Ret (RET, Homo sapiens, UniProt P07949, V804M) | 98% |
| Serine/threonine-protein kinase PRP4 homolog (PRPF4B, Homo sapiens, UniProt Q13523) | 99% |
| Cyclin-dependent kinase 7 (CDK7, Homo sapiens, UniProt P50613) | 82% |
| SRSF protein kinase 3 (SRPK3, Homo sapiens, UniProt Q9UPE1) | 100% |
| Beta-adrenergic receptor kinase 1 (GRK2, Homo sapiens, UniProt P25098) | 86% |
| Mitogen-activated protein kinase 3 (MAPK3, Homo sapiens, UniProt P27361) | 100% |
| Membrane-associated tyrosine- and threonine-specific cdc2-inhibitory kinase (PKMYT1, Homo sapiens, UniProt Q99640) | 100% |
| Serine/threonine-protein kinase pim-1 (PIM1, Homo sapiens, UniProt P11309) | 96% |
| Serine/threonine-protein kinase Chk1 (CHEK1, Homo sapiens, UniProt O14757) | 100% |
| Phosphatidylinositol 4,5-bisphosphate 3-kinase catalytic subunit alpha isoform (PIK3CA, Homo sapiens, UniProt P42336, E545A) | 100% |
| Cyclin-dependent kinase 9 (CDK9, Homo sapiens, UniProt P50750) | 100% |
| Leucine-rich repeat serine/threonine-protein kinase 2 (LRRK2, Homo sapiens, UniProt Q5S007, G2019S) | 100% |

Study 2
Structure (SMILES): Cc1nc(Nc2ncc(C(=O)Nc3c(C)cccc3Cl)s2)cc(N2CCN(CCO)CC2)n1
Mode: inhibitor
Tested at: 10 µM
| target | inhibition [%] |
| --- | --- |
| Mitogen-activated protein kinase 6 (MAPK6, Homo sapiens, UniProt Q16659) | < 50 |
| SRSF protein kinase 1 (SRPK1, Homo sapiens, UniProt Q96SB4) | < 50 |
| NT-3 growth factor receptor (NTRK3, Homo sapiens, UniProt Q16288) | < 50 |
| Glycogen synthase kinase-3 alpha (GSK3A, Homo sapiens, UniProt P49840) | < 50 |
| Ribosomal protein S6 kinase alpha-3, N-terminal kinase domain (RPS6KA3, Homo sapiens, UniProt P51812) | < 50 |
| Receptor-interacting serine/threonine-protein kinase 4 (RIPK4, Homo sapiens, UniProt P57078) | < 50 |

Study 3
Cell line: mouse MPNST tumor cells
Method: high-content nuclear imaging
Item: cell number
Tested at: 10 µM
Time: 12 h
Notes: mean of 2 replicates
Relative to: plate mean
Reading: higher = more cells
| SMILES | nuclei count |
| --- | --- |
| CC1(C)CCC(C)(C)c2cc(C#Cc3ccc(C(=O)O)cc3)ccc21 | 0.602 z-score |
| Cc1cc(-c2nncc3c(C(C)(C)C)c(OCc4ncnn4C)nn23)no1 | 0.0418 z-score |
| NC(=O)N1c2ccccc2CC(O)c2ccccc21 (stereo not drawn) | 1.97 z-score |
| Cc1cc(Nc2nc(N[C@@H](C)c3ncc(F)cn3)ncc2Cl)[nH]n1 | -2.17 z-score |
| CN1CCN2c3ccccc3Cc3ccccc3C2C1 (stereo not drawn) | -1.94 z-score |
| O=C(O)Cc1sc(-c2ccccc2)nc1-c1ccc(Cl)cc1 | -0.0629 z-score |
| NC(N)=Nc1nc(CSCC/C(N)=N/S(N)(=O)=O)cs1 | 2.78 z-score |

Study 4
Target: Calcium/calmodulin-dependent protein kinase type II subunit alpha (CAMK2A, Homo sapiens, UniProt Q9UQM7)
UniProt Q9UQM7, sequence (whole entry, looked up): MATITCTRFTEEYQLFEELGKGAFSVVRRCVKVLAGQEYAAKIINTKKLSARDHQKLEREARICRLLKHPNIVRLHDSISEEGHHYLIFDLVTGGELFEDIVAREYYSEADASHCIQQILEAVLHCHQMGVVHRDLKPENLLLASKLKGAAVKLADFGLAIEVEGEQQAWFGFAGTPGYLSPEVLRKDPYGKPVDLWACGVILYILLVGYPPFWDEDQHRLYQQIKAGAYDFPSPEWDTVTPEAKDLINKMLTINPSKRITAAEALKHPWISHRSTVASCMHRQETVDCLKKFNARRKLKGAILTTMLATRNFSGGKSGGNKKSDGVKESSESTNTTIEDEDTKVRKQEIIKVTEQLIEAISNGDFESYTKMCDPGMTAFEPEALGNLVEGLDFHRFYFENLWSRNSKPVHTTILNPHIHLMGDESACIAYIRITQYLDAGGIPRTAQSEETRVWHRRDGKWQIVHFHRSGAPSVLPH
Observed: enzyme activity
Mode: inhibitor
Tested at: 10 µM
| SMILES | inhibition [%] |
| --- | --- |
| O=C(O[C@@H]1Cc2c(O)cc(O)cc2O[C@H]1c1cc(O)c(O)c(O)c1)c1cc(O)c(O)c(O)c1 | -71 |
| COc1ccc2c(O[C@@H]3C[C@H]4C(=O)N[C@]5(C(=O)NS(=O)(=O)C6CC6)C[C@H]5/C=C\CCCCN(C)C(=O)[C@@H]4C3)cc(-c3nc(C(C)C)cs3)nc2c1C | 0 |
| OCC1CCCCO1 (stereo not drawn) | -13 |
| COc1cc([C@H]2Oc3ccc([C@H]4Oc5cc(O)cc(O)c5C(=O)[C@@H]4O)cc3O[C@@H]2CO)ccc1O | 3 |

Study 5
Target: DNA polymerase theta, ATPase domain (POLQ, Homo sapiens, UniProt O75417)
UniProt O75417, sequence (whole entry, unmodified, looked up): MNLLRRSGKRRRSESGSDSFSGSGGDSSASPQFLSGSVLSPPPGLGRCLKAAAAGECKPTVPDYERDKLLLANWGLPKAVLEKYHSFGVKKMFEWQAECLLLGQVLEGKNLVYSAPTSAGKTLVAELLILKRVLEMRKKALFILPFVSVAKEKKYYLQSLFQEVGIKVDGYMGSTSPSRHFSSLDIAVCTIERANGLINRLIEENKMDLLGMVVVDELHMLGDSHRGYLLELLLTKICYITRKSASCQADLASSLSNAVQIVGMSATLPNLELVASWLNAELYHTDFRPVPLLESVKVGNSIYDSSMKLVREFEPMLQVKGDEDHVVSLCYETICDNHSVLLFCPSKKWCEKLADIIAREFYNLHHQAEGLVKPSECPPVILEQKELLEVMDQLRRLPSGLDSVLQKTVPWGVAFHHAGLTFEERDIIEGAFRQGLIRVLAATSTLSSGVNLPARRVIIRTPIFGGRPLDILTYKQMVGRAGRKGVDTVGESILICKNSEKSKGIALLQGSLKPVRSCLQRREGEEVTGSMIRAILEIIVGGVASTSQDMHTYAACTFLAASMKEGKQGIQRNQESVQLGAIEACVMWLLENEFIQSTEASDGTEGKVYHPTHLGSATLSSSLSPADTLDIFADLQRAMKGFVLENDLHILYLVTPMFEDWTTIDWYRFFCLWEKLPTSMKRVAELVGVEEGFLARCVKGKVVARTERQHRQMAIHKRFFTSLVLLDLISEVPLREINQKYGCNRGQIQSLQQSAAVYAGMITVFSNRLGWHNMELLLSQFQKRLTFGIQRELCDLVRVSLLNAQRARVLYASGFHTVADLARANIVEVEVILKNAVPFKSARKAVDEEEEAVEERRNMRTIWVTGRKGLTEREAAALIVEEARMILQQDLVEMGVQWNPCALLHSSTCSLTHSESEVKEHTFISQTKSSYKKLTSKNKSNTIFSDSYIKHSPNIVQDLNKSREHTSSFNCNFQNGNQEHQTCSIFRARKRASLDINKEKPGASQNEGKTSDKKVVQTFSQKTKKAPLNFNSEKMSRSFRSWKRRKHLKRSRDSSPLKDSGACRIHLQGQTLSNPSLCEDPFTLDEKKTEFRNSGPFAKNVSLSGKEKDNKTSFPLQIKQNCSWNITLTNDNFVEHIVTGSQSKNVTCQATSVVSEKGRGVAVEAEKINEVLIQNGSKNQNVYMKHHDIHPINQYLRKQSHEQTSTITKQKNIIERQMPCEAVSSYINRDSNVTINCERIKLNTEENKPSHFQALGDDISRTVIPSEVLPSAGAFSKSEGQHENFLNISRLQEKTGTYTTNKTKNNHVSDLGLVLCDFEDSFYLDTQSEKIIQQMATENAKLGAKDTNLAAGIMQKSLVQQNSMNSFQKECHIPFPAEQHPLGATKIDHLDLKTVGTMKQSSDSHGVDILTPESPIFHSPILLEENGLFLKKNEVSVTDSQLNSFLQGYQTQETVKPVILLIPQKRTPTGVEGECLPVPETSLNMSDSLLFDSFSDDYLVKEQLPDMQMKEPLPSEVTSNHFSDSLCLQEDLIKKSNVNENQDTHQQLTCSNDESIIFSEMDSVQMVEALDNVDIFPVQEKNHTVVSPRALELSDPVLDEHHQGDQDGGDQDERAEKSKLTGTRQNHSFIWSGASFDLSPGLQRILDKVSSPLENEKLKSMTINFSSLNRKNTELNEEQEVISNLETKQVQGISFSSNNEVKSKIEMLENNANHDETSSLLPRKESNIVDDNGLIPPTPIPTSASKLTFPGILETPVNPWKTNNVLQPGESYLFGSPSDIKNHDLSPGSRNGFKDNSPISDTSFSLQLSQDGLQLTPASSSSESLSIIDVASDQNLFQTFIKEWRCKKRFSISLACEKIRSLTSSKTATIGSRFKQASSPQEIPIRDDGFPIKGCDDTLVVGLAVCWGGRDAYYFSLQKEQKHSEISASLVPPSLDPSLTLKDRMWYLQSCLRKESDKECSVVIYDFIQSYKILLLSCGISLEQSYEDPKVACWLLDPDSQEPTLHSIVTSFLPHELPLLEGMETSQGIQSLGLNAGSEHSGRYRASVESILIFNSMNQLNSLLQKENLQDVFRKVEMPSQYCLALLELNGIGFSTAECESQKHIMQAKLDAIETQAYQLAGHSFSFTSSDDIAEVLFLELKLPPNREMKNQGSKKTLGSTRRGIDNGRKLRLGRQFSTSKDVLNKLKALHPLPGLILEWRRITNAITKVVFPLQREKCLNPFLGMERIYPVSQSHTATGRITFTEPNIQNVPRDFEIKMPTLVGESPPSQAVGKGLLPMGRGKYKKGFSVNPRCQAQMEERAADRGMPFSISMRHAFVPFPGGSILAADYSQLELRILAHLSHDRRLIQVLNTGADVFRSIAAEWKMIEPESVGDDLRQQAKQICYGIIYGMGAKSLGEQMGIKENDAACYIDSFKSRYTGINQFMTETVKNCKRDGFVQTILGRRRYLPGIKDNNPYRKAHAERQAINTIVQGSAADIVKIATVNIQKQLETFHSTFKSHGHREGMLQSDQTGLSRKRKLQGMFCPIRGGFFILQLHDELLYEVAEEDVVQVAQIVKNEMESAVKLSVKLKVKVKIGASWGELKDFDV
Observed: enzyme activity
Mode: inhibitor
Tested at: 77 µM
Relative to: untreated
| Compound | remaining activity |
| --- | --- |
| O=C(Nc1cc(C(F)(F)F)ccc1N1CCCCC1)c1ccncc1 | 101% |
| OC[C@H]1O[C@@H](Oc2ccc(O)cc2)[C@H](O)[C@@H](O)[C@@H]1O | 103% and 96.1% |
| CCn1cc(C(=O)O)c(=O)c2cc3c(cc21)OCO3 | 97.5% |
| COc1ccccc1Oc1c(NS(=O)(=O)c2ccc(C(C)(C)C)cc2)nc(-c2ncccn2)nc1OCCO | 77% and 97% |
| Cc1cccc(C)c1NC(=O)CN1CCN(CCCC(c2ccc(F)cc2)c2ccc(F)cc2)CC1 | 94.7% |
| COC(=O)C1=C(C)NC(C)=C(C(=O)O[C@@H]2CCCN(Cc3ccccc3)C2)[C@@H]1c1cccc([N+](=O)[O-])c1 (racemic) | 99.3% |
| CC1(C)S[C@@H]2[C@H](NC(=O)[C@H](NC(=O)N3CCNC3=O)c3ccccc3)C(=O)N2[C@H]1C(=O)O | 99% and 96.6% |
| N#Cc1cc(CN2CCC(Nc3ncnc4sc(Cl)cc34)CC2)ccc1F | 104% |
| CC(=O)O[C@@]12CO[C@@H]1C[C@H](O)[C@@]1(C)C(=O)[C@H](O)C3=C(C)[C@@H](OC(=O)[C@H](O)[C@@H](NC(=O)OC(C)(C)C)c4ccccc4)C[C@@](O)([C@@H](OC(=O)c4ccccc4)[C@H]21)C3(C)C | 90.6% |

Some of these lines once more (study 1):
| target | remaining binding |
| --- | --- |
| Serine/threonine-protein kinase 24 (STK24, Homo sapiens, UniProt Q9Y6E0) | 100% |
| Casein kinase I isoform gamma-1 (CSNK1G1, Homo sapiens, UniProt Q9HCP0) | 100% |
| Tyrosine-protein kinase Mer (MERTK, Homo sapiens, UniProt Q12866) | 100% |
| Mitogen-activated protein kinase 4 (MAPK4, Homo sapiens, UniProt P31152) | 100% |
| Proto-oncogene tyrosine-protein kinase receptor Ret (RET, Homo sapiens, UniProt P07949, V804M) | 98% |
| Focal adhesion kinase 1 (PTK2, Homo sapiens, UniProt Q05397) | 100% |
| Vascular endothelial growth factor receptor 3 (FLT4, Homo sapiens, UniProt P35916) | 95% |
| Cyclin-dependent kinase 9 (CDK9, Homo sapiens, UniProt P50750) | 100% |
